Published values collected from several papers.
Lines come from different studies, so protocols differ. Numbers after ± are the reported error.
CXCR4: C-X-C chemokine receptor type 4 (CXCR4, Homo sapiens, UniProt P61073)
UniProt P11712, sequence (whole entry, looked up): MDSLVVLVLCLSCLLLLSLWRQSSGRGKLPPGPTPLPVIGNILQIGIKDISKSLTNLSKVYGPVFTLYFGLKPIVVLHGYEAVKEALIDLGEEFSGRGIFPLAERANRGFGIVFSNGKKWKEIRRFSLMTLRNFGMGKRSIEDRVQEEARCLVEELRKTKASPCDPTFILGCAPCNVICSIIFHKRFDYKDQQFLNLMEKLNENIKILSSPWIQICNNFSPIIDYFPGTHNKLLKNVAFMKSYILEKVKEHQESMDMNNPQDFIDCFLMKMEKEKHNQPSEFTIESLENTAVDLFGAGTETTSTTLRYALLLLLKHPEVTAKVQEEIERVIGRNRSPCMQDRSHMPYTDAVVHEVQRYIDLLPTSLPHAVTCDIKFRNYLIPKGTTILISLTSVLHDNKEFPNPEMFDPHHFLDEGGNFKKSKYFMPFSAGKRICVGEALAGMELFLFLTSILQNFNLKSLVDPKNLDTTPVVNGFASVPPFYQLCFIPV

| SMILES | tested on | test | test system | conditions | how to read | measurement | value |
| --- | --- | --- | --- | --- | --- | --- | --- |
| C=C(c1cc(F)c(C(=O)O)c(F)c1)c1cc2c(cc1C)C(C)(C)CCC2(C)C |  |  | Sprague-Dawley rat, male | oral, 100 mg/kg, 9 h, sesame oil vehicle |  | blood cholesterol | 80 ± 14 mg/dL |
| O=C(O)C1CN(Cc2ccc(-c3noc(-c4ccc(OCC[18F])c(C(F)(F)F)c4)n3)cc2)C1 |  |  | rat, pancreas | intravenous, 5 min |  | tracer uptake | 0.755 %ID/g |
| CCCCC1NC(=O)c2ccccc21 (racemic) |  |  | Wistar rat, plasma | intravenous, 10 mg/kg |  | CL/F | 12.1 mL/min/kg |
| CC(=O)NC1CC=C(c2cc3c(Nc4cc5ncsc5cc4F)ncnc3s2)CC1 (racemic) |  | metabolic stability | human, liver microsomes |  |  | half-life | > 2 h |
| NCC(=O)N1CCC[C@H]1C(=O)N1C[C@H](O)C[C@H]1C(=O)O |  | potentiometric titration |  | 40 °C, MAH-3 complex, added: Fe(III) |  | log beta | 2.51 |
| N=C(N)NCCC[C@@H]1NC(=O)[C@H](Cc2c[nH]c3ccccc23)NC(=O)[C@@H](CC2CCCCC2)NC(=O)[C@@H]2CCCN2C(=O)[C@@H](NC(=O)CCc2ccccc2)CCCNC1=O |  |  | C57BL/6J mice, plasma | intravenous, 1 mg/kg |  | elimination half-life | 4.09 min |
| CC(C)CCCC(C)CCCC(C)CCO[C@@H]1O[C@H](CO)[C@@H](O[C@H]2O[C@H](CO)[C@@H](O)[C@H](O)[C@H]2O)[C@H](O)[C@H]1O (stereo partly shown) |  | dynamic surface tension |  | 0.0072 mmol/L |  | surface tension at induction time | 64.3 mN/m |
| CC(C)c1cnc(-c2cc(Cl)ccc2F)cc1Nc1ccncc1C(=O)NC(CO)CO |  | refers to: intracranial tumour haemorrhage | human patients | oral, dose not given, grade 1 |  | patients with related SAE | 0% |
| Nc1ncnc2c1ncn2CC(=O)N[C@@H](Cc1ccccc1)C(=O)N[C@@H](Cc1ccccc1)C(=O)N[C@H]1C(O)O[C@H](CO)[C@@H](O)[C@@H]1O (stereo partly shown) |  |  | water | 3.0 wt%, pH-triggered gelation |  | pH of hydrogelation | ~5 |
| COc1cc(/C=C/C(=O)O)ccc1O |  |  | human plasma | 400 ng/mL, 3 cycles |  | freeze-thaw stability | 100 ± 3.21% |
| COC(=O)C1OC(Oc2c(-c3ccccc3)oc3cc(O)c(O)c(O)c3c2=O)C(O)C(O)C1O (stereo not shown) |  |  | BALB/c mouse, liver | 2 mg/kg |  | organ weight | 3.6 ± 0.7 g |
| COc1ccc(/C=C/c2ccc(-c3ccc(C)cn3)nc2)cc1 |  | TCSPC | dioxane |  |  | radiative decay rate constant | 0.6 ns⁻¹ |
| CC(C)C[C@H](NC(=O)[C@H](C)NC(=O)[C@H](C)NC(=O)[C@H](CCC(N)=O)NC(=O)[C@H](C)NC(=O)[C@H](CO)NC(=O)[C@H](CC(C)C)NC(=O)[C@H](C)NC(=O)[C@@H](NC(=O)[C@H](C)NC(=O)[C@H](Cc1ccc(O)cc1)NC(=O)[C@H](CO)NC(=O)[C@H](CCCCN)NC(=O)[C@H](C)NC(=O)[C@H](Cc1ccccc1)NC(=O)[C@H](CCCCN)NC(=O)[C@H](C)NC(=O)[C@H](Cc1ccccc1)NC(=O)[C@H](CCCCN)NC(=O)[C@H](CCCCN)NC(=O)[C@H](C)NC(=O)[C@H](Cc1ccccc1)NC(=O)[C@H](CCCCN)NC(=O)[C@H](C)NC(=O)[C@H](Cc1ccccc1)NC(=O)[C@H](CCCCN)NC(=O)[C@H](CCCCN)NC(=O)[C@H](C)NC(=O)[C@H](Cc1ccccc1)NC(=O)[C@H](CCCCN)NC(=O)[C@H](C)NC(=O)[C@H](Cc1ccccc1)NC(=O)[C@@H](N)CCCCN)C(C)C)C(=O)N[C@@H](C)C(=O)N[C@@H](CCCNC(=N)N)C(=O)N[C@@H](CCCNC(=N)N)C(=O)O |  |  | C57BL/6 mouse, male | intravenous, 8 mg/kg |  | volume of distribution | 0.287 ± 0.032 L/kg |
| CC[C@H](C)[C@H](N)C1=N[C@H](C(=O)N[C@@H](CC(C)C)C(=O)N[C@H](CCC(=O)O)C(=O)N[C@H](C(=O)N[C@H]2CCCCNC(=O)[C@H](CC(N)=O)NC(=O)[C@@H](CC(=O)O)NC(=O)[C@H](Cc3c[nH]cn3)NC(=O)[C@@H](Cc3ccccc3)NC(=O)[C@H]([C@@H](C)CC)NC(=O)[C@@H](CCCN)NC2=O)[C@@H](C)CC)CS1 |  |  | TFA/TIPS/water | 30 min |  | epimerisation | > 15% |
| [11CH3]c1ccc2nc(C3CCC3)n(-c3ccc4[nH]ncc4c3)c2n1 |  |  | standard human, breasts | extrapolated from mouse biodistribution |  | absorbed radiation dose | 2.3 µSv/MBq |
| COc1cc(NC(C)=O)c2c(c1O)-c1c(OC)c(OC)cc3c1C(C2)N(C)CC3 (stereo not shown) |  |  | rat kidney homogenate | 0.5 µg/mL, 4 h, room temperature, short-term storage |  | remaining compound | 98.5 ± 1.7% |
| COc1cc2c(cc1OC)CN(CCCCn1ccc3cc(OCC[18F])ccc31)C2 |  |  | male ICR mice | intravenous, 2 min post-injection |  | heart uptake | 15.5 ± 1.37 %ID/g |
| Cc1cc2c(cc1C1(c3ncc(C(=O)O)cn3)CC1)C(C)(C)CCC2(C)C |  |  | Sprague-Dawley rat, male | oral, 100 mg/kg, 2 h, sesame oil vehicle |  | blood cholesterol | 81 ± 6.5 mg/dL |
| O=C(O[C@H](CO)C(F)(F)F)N1C[C@@H]2[C@H](C1)[C@H]2c1ccn(-c2ccc([18F])nc2)n1 |  |  | Sprague-Dawley rat, plasma | dose not given, 5 min |  | parent fraction of radioactivity | 70% |
| C[Si]1(C[C@H](CN)CC(=O)O)CCCC1 |  | neuromuscular coordination | Wistar rat male | oral, 300 mg/kg, 2 h |  | performance time | 180 s |

| SMILES | tested on | test | test system | conditions | how to read | measurement | value |
| --- | --- | --- | --- | --- | --- | --- | --- |
| CCOC(=O)c1[nH]c(C)c(/C=C/C2=[N+]3C(=C(c4cc(OC)cc(OC)c4)c4c(C)c(I)c(/C=C/c5c(C)[nH]c(C(=O)OCC)c5C)n4[B-]3(F)F)C(C)=C2I)c1C |  |  | DMSO |  |  | absorption maximum | 693 nm |
| C=CC(=O)Nc1cc(Nc2nccc(-c3cn(C)c4ccccc34)n2)c(OCC(F)(F)F)nc1N(C)CCN(C)C | Cytochrome P450 2C9 (CYP2C9, Homo sapiens, UniProt P11712) | enzyme activity, inhibitor | human, liver microsomes | 0.33 µM |  | activity vs control | 105% |
| O=c1nc(NO)ccn1[C@@H]1O[C@H](CO)[C@@H](O)[C@H]1O |  | RT-PCR, refers to: CYP3A1 | normal rat, liver | oral, 80 mg/kg twice daily, 5 days | relative to: untreated rats | mRNA level | 0.2 fold |
| CC(=O)N[C@H](CC(=O)O)C(=O)N[C@H](Cc1c[nH]c2ccccc12)C(=O)N[C@H](Cc1ccccc1)C(=O)N[C@H](CCCCN)C(=O)N[C@H](C)C(=O)N[C@H](Cc1ccccc1)C(=O)N[C@H](Cc1ccc(O)cc1)C(=O)N[C@H](CC(=O)O)C(=O)N[C@H](CCCCN)C(=O)N[C@@H](C(=O)N[C@H](C)C(=O)N[C@H](CCC(=O)O)C(=O)N[C@H](CCCCN)C(=O)N[C@H](Cc1ccccc1)C(=O)N[C@H](CCCCN)C(=O)N[C@H](CCC(=O)O)C(=O)N[C@H](C)C(=O)N[C@H](Cc1ccccc1)C(N)=O)C(C)C |  |  | statin-treated high-risk CHD women, plasma | oral, 300 mg daily, day 1, 0 to 2 h, mean, undetectable set to 0 |  | Cmax | 6.86 ng/mL |
| CC[C@H](C)[C@H](NC(=O)[C@H](CCCCN)NC(=O)[C@H](CS)NC(=O)[C@H](CC(N)=O)NC(=O)[C@H](C)NC(=O)[C@H](CCCNC(=N)N)NC(=O)[C@H](CCCNC(=N)N)NC(=O)[C@H](CC(N)=O)NC(=O)[C@H](CCCNC(=N)N)NC(=O)[C@@H](NC(=O)[C@H](CCCNC(=N)N)NC(=O)[C@H](CS)NC(=O)[C@H](CO)NC(=O)[C@@H](NC(=O)[C@H](CCC(N)=O)NC(=O)[C@H](CS)NC(=O)[C@H](CCCCN)NC(=O)[C@@H](N)CCCNC(=N)N)[C@@H](C)CC)[C@@H](C)CC)C(=O)N[C@@H](CO)C(=O)N[C@@H](CS)C(=O)N[C@@H](CC(N)=O)C(=O)O |  | LC-MS | PBS | 0.1 mg/mL |  | single disulfide form | 8% |
| CCn1c(=O)n(CCO)c(=O)c2c1nc(/C=C/c1ccc(OC)c(OC)c1)n2C |  |  | healthy humans, plasma | oral, 40 mg, added: rifampin 600 mg/day | relative to: with over without rifampin | geometric mean ratio Cmax | 1.14 |
| [64Cu+2].c1cnc(CNCc2ccc(CN3CCCN4CCNCCCN(CC4)CC3)cc2)nc1 | CXCR4 |  | NOD/SCID mouse, U87-stb-CXCR4 tumour | dose not given, 90 to 240 min | relative to: maximum uptake | retained radioactivity | ~70% |
| Cc1ccc(/N=N/c2c(O)ccc3ccccc23)c(C)c1 |  |  | extracted rat blood QC samples | 0.5 µg/L, 4 h, room temperature, short-term stability |  | measured concentration | 0.487 µg/L |
| COc1ccc(OC)c(/C(=C\c2ccc(O)c(O)c2)C(=O)NCCc2ccc(O)cc2)c1 |  |  | C57BL mice, antibiotic-induced dysbacteriosis, faeces | oral, 75 mg/kg of FLZ, 8 weeks, 24 h collection | relative to: control mice | faecal concentration | decreased |
| C#CCOc1ccc(/C=C2\SC(=O)N(CC(=O)NCc3ccccc3)C2=O)cc1 |  | inverse Kirkwood-Buff integrals | binary solvent mixture | concentration not given, 298.15 K, mole fraction x1 0.05 |  | correlation volume | 1420 cm³/mol |
| [64Cu+2].c1ccc(CNCc2ccc(CN3CCCN4CCNCCCN(CC4)CC3)cc2)nc1 | CXCR4 |  | NOD/SCID mice, U87 xenografts, U87-stb-CXCR4 tumour | 30 min post-injection |  | tissue uptake | 13.3 ± 9.83 %ID/g |
| Oc1ccc2ccccc2c1/N=N/c1ccc(/N=N/c2ccccc2)cc1 |  |  | Sprague-Dawley rats both sexes, whole blood | oral, 50 mg/kg |  | MRT(0-inf) | 3.45 h |
| CC(C)(O)c1ncc([S@](N)(=O)=NC(=O)Nc2c3c(cc4c2CCC4)CCC3)s1 |  |  | human, plasma | oral, 600 mg, single dose, fasted, healthy volunteers |  | Tmax | 2.5 h |
| CCC(C)N(C)C(=O)c1nc(-c2cccc(C(F)(F)[18F])c2)c2ccccc2n1 (stereo not shown) |  |  | healthy mice, blood | intravenous, 3.7 MBq |  | beta half-life | ~1.28 h |
| COc1ccc2cc(-c3ccc(-c4ccc(C)cn4)nc3)oc2c1 |  |  | aqueous HEPES buffer | pH 7.4, zinc-free ligand |  | absorption maximum | 347 nm |
| CC(C)C[C@@H]1NC(=O)[C@@H]2CCCN2C(=O)[C@H](CO)NC(=O)[C@@H](NC(=O)[C@H](Cc2c[nH]cn2)NC(=O)[C@H](CO)NC(=O)[C@H](Cc2ccc(O)cc2)NC(=O)[C@H](CC(=O)O)NC(=O)CNC(=O)CN2CCN(CC(=O)O)CCN(CC(=O)O)CCN(CC(=O)O)CC2)CSSC[C@@H](C(=O)N[C@H](C(=O)N[C@@H](Cc2ccc(O)cc2)C(=O)N2CCC[C@H]2C(=O)N[C@@H](CC(=O)O)C(=O)N2CCC[C@H]2C(=O)N[C@@H](CCC(=O)O)C(=O)NCC(=O)NCC(=O)NCC(N)=O)[C@@H](C)O)NC(=O)[C@H](CCCCN)NC(=O)[C@H](Cc2c[nH]c3ccccc23)NC(=O)[C@H](Cc2c[nH]c3ccccc23)NC(=O)[C@@H]2CCCN2C(=O)[C@H](Cc2ccc(O)cc2)NC(=O)[C@H](Cc2ccc(O)cc2)NC(=O)[C@H](CCCNC(=N)N)NC1=O [gallium-68 labelled] |  | PET/CT | NOD-SCID mice, heart over thigh muscle | 45 to 60 min |  | heart to muscle ratio | ~3.8 |
| CCCC(CCC)NC(=O)c1ccc(OC2OC(C(=O)O)C(O)C(O)C2O)c(OC)c1 (stereo not shown) |  |  | female Sprague-Dawley rats, plasma | oral, 50 mg/kg of parent drug | relative to: 50 over 20 mg/kg dose | AUC(0-last) ratio | 2.14 |
| CC(C)[C@H](NC(=O)CNC(=O)[C@H](CCC(N)=O)NC(=O)[C@H](C)N)C(=O)O |  |  | healthy volunteers, LPS endotoxaemia, plasma | intravenous, 90 mg/kg/h, 2 h infusion, geometric mean, added: LPS 2 ng/kg |  | clearance | 150 mL/min/kg |
| Cn1c(=O)oc2ccc(-c3ccc(CC(C#N)NC(=O)C4CNCCCO4)c(F)c3)cc21 (stereo not shown) |  | refers to: skin exfoliation | human | 80 mg single dose, fasted |  | subjects with TEAE | 0% |
| CC(C)C[C@H](NC(=O)C[C@H](O)[C@H](CC(C)C)NC(=O)[C@H](Cc1c[nH]cn1)NC(=O)CNC(=O)[C@@H](NC(=O)[C@H](C)NC(=O)[C@H](Cc1c[nH]c2ccccc12)NC(=O)[C@H](CCC(N)=O)NC(=O)[C@@H](Cc1ccccc1)NC(=O)CCNC(=O)CCNC(=O)CN1CCN(CC(=O)O)CCN(CC(=O)O)CCN(CC(=O)O)CC1)C(C)C)C(N)=O [lutetium-177 labelled] |  | MIRD | mouse PC-3 xenograft, pancreas | intravenous, 50 MBq, with PA |  | absorbed dose | 3.1 Gy |
